Experimental data from different studies.
A part holds a random share of what one study measured. Substitutions count along the parent as printed.

Series 1
Target: RNA binding protein fox-1 homolog 2, RRM domain, GST-SBP tag (RBFOX2, Homo sapiens, UniProt O43251-10, residues 100-194)
Technique: RNA Bind-n-Seq
Form: RNA
Medium: in vitro
Concentration: 365 nM
Notes: natural RNA segment, single round, ends assumed
Baseline: no-protein control
Reading: higher = stronger binding
Measurement: RBNS enrichment (R)
Shared flanks, not repeated: GGGAGUUCUACAGUCCGACGAUC … UGGAAUUCUCGGGUGCCAA
Target sequence (chain): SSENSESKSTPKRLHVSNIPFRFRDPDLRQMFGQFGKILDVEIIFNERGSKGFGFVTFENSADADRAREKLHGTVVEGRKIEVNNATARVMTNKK
CUCAGUGUGAUGUAUAAUGAUGCAACAGGGACCCUUGUAAAUUGUCAUACGCCAAUAAAAUGUCACAGUAAUAACUGCUGUUGUUUGUUUACCUGUGUCUAUUUCACACA: 0.361
UUUGUAAACUUUGAAAUAUAUGGUCUAAUGUUUAAGCAGAAUUGGAAAAGACUAAGAUCGGUUAACAAAUAACAACUUUUUUUUCUUUUUUUCUUUUGUUUUUUGAAGUG: 0.654
AACAAACCCUGAAAUGUAUAUUUGGGAUUAUGAUAAGGCAACUAAAGACAUGAAACCUCAGGUAUCCUGCUUUAAGUUGAUAACUCCCUCUGGGAGCUGGAGAAUCGCUC: 0.204
UGGCCUCCAGCAGGAGCACAGCUCAGCAGGGUCCCUGCUGCCCACCCCUCUGAGCCUUUUCUCCCCAGGGUAUGGCUCCUGCUGAGUUUCUUGUCCAGCAGGGCCUUGAC: 0.299
CUGUUUGCCCACCUUUUCCAGGUGUAAGAGGCAGAGAGCCUGGACAGCUUUCUCUCUCAGCCAUUGUUCACCCCACUUGAAAAUUCAAACAAGAAAACUUUGCUUCAAAG: 0.397
CCCAUCAGAAUUAUAUUUAUACAUAUUGGUGGAUAAGUUCUUGUCUUCCCACAUCAGAGAAUUUUUUUUUAAACCAAAAUGGGCAGAAUAGCAUUUUGUAUGUUAGAGAC: 0.456
CCCUCUCUUGUUUCCUCUCCUCUUCUUAUGCCCCCUCCUGGGGAGGAGGCUACUGGAUGUAAGCUGUGCAGACCUGCUUCCCUCAGCAUUAAAUGUCUUCUCUUGAGCUG: 0.633
UUUUUUUCAUCUUUUUUUGUUAACUAAUUUGCAAUAAAAAUGAUACUGAUGGUUGUCCACAUUUUGCAAACUUGGAGUGUGGUUUGGUUCACUUUUUGGGGAGUGUGACA: 0.708

Series 2
Target: ABI1, truncated, D143A, DHFR fusion (Arabidopsis thaliana)
Technique: DHFR PCA, deep sequencing
Medium: yeast
Notes: methotrexate growth selection, single substitutions
With: (+)-ABA 58 µM
Baseline: wild-type fitted maximum
Reading: higher = stronger binding
Measurement: relative binding score
Starting sequence: PYL1, truncated, DHFR fusion (Arabidopsis thaliana); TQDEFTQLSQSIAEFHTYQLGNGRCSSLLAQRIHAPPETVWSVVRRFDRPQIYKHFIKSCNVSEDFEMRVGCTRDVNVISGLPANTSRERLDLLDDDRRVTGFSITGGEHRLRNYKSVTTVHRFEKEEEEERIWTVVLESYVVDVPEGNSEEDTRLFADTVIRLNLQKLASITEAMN
R90N: 37.7%
L8Y: 69.7%
A175D: 81.7%
I52Y: 78.6%
V118N: 65.3%
L82F: 41.1%
Y141C: 16.6%
L112N: -4.64%
G108H: 0.477%
V70N: 45.4%
V70M: 55.2%
E147C: 75.7%
T120A: 7.44%
R132V: 92.7%
H122W: -14.8%
E125C: 96.4%
K116Q: 85.6%
L169H: 1.32%
D75E: 86.7%
V161K: -13.9%
V44F: -9.94%
E130H: 99.8%
L112V: 12.2%
T86K: 70.4%
V142Q: 77.5%

Series 3
Target: Interferon regulatory factor 7, full length, phosphomimetic (IRF7, Homo sapiens, UniProt Q92985, residues 1-503, S471D/S472D/S475D/S476D/S477D/S483D/S484D/S487D)
Technique: protein-binding microarray
Form: double-stranded DNA, one strand shown
Medium: in vitro
Concentration: 2200 nM top
Notes: 60-bp whole probe
With: salmon DNA 0.4 mg/ml
Baseline: random background probes
Reading: higher = stronger binding
Measurement: fitted relative affinity
Shared flanks, not repeated: GCCTAGCAC … GTCTTGATTCGCTTGACGCTGCTG
Residues (chain): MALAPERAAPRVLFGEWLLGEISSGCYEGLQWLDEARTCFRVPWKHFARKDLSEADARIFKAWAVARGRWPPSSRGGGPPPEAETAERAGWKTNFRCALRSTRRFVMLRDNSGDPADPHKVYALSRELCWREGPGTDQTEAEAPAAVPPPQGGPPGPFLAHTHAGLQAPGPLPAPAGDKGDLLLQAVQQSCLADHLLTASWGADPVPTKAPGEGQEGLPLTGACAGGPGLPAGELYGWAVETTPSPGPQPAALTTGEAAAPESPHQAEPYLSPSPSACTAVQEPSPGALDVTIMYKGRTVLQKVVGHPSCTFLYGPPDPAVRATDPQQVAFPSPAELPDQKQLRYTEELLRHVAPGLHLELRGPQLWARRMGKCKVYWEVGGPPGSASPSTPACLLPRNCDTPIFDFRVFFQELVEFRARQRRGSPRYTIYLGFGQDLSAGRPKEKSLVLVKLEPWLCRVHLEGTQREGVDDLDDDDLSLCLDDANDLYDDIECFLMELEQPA
TTAGGGCTGCTTATCCTTTAGTGCTAG: -0.47 z-score
CAGAAGTTCATGTTCAACCAGTGCTAG: 0.335 z-score
GACGATCTCAGTCTAGAGACGTGCTAG: -0.139 z-score
TCAACTCTTTACATGGGACTGTGCTAG: 0.662 z-score
TATTGTTTCCTCTTTCACTGGTGCTAG: 3.6 z-score
TTAGTTCTCGGTCTCGGTTAGTGCTAG: 1.75 z-score
TTTGGACTGGGGACTGGGTTAGTGCTA: -0.651 z-score
TCAGCTCTGGCACCTCTAACTGTGCTA: -0.249 z-score
TTAGGTATCCTTTTACTTTAGTGCTAG: 0.95 z-score
GAGATTTTCATTATTGCTTCGTGCTAG: 1.65 z-score
GCCGAACTGGGGTATCGAGACGTGCTA: -0.446 z-score
TCATTTCTACTTCTGTTACTGTGCTAG: 3.21 z-score
GACGATATCGGGTATCCAGACGTGCTA: 0.186 z-score
TCATATATTTTAATCACACTGTGCTAG: 0.662 z-score
TTAGGACTGCTTATCCTTTAGTGCTAG: 0.212 z-score
TTAGGTTTCGGGTTTCAGTTAGTGCTA: 8.52 z-score
GACGAACTGGGGACAGGAGACGTGCTA: -0.387 z-score
GACGGTTCCGGTTTCTGGACGTGCTAG: 3.9 z-score
TTAGCTTTCCTACTGCTTTAGTGCTAG: 1.87 z-score

Series 4
Target: Sal-like protein 4, full length isoform B (SALL4, Homo sapiens, UniProt Q9UJQ4-2, residues 1-616)
Technique: universal PBM
Form: double-stranded DNA, one strand shown
Medium: in vitro
Concentration: not given
Notes: 8-mer, flanks averaged, mean of replicates
Reading: higher = stronger binding
Measurement: E-score
Residues (chain): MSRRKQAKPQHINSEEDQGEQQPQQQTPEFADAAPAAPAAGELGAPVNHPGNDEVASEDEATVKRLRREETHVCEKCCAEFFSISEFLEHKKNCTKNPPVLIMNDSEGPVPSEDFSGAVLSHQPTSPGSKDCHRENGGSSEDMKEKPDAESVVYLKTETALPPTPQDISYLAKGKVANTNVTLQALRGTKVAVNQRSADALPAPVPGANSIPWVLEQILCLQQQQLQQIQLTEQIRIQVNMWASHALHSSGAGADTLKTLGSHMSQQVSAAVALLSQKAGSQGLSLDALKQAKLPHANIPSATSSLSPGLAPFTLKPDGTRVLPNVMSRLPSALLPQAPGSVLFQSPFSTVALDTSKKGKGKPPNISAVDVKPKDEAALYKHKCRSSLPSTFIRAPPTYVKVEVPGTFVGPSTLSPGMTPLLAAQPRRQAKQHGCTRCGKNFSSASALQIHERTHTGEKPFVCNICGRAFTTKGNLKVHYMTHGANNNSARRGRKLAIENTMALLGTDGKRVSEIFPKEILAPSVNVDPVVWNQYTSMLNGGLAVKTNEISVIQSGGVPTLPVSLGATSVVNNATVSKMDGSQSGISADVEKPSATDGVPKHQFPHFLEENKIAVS
ACCATACG: 0.0722
AGCATGAT: 0.0681
CATGTTTA: 0.26
GGTTCACA: 0.0407
CCCACACA: -0.222
AGGATCAG: -0.239
GAAAGCAC: -0.119
CGTGAGAA: -0.0889
CCGGGTGA: -0.264
CGGGCGCA: -0.332
CTGTTCGC: -0.00025
AATTCGCG: -0.0456
CGAGAGCG: -0.274
CAATTTCA: 0.222
AGAGACGC: -0.202
GCCGAAAA: -0.0237
CCATCTAA: -0.00018
ATGGACAC: 0.0645
GCTCCGCA: -0.234
GCGTACCC: -0.128
ACAGAATA: 0.223

Repeated from above (series 4):
AATTCGCG: -0.0456
CTGTTCGC: -0.00025
GCTCCGCA: -0.234
GGTTCACA: 0.0407
AGCATGAT: 0.0681
CGGGCGCA: -0.332
AGAGACGC: -0.202
AGGATCAG: -0.239
CCCACACA: -0.222
ACAGAATA: 0.223
ACCATACG: 0.0722
